Assay results of several laboratories.
Parts stem from different laboratories: compare values within a part only. Substitutions count along the parent as printed.

Study 1 — technique: protein-binding microarray; form: double-stranded DNA, one strand shown; sample: in vitro; tested at: 0.8 µM; notes: whole 60-bp probe, no competitor; direction: higher = stronger binding
Target: Centromere-binding protein 1, full length, N-terminal tag (CBF1, Saccharomyces cerevisiae, UniProt P17106, residues 1-351)
Chain of UniProt P17106 (whole entry, looked up): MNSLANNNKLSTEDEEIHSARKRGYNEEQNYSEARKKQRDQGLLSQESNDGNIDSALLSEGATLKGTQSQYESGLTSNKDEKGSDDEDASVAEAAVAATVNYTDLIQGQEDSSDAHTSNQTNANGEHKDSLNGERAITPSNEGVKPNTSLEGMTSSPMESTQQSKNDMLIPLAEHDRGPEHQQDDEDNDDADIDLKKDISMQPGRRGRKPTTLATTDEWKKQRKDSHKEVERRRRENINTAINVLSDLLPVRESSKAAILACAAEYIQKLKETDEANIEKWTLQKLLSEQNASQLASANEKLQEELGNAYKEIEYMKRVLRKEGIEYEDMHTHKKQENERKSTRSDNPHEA
`CTAACAAAAGCAGATCTCCTGTTCATATACCATTTCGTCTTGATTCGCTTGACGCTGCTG` gave a fluorescence intensity of 514 a.u.
The fluorescence intensity of `CCTAACTACTATAGTGATATTGCATAGCTTCGTACAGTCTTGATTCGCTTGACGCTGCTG` is reported as 504 a.u.
`GAACGCGATCAGCCGCACATGGGCATTATCATTTAGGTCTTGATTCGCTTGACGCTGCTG` gave a fluorescence intensity of 656 a.u.
With `GAAAATGTTTTGCATCACATGACCATGTTCGAGTAGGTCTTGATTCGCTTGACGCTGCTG` the fluorescence intensity was 8960 a.u.
`CTAGTGACTATTGAGCACGTGAGTATACGTGATTTCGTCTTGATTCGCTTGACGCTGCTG` gave a fluorescence intensity of 6620 a.u.
With `CCTAACTACTATAACGTGCGTACATAGCTTCGTACAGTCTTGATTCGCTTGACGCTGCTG` the fluorescence intensity was 617 a.u.
`GAACATAGAAAAAAGCATGTGATCAAGGCAGAGTAGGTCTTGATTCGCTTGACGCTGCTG` has a fluorescence intensity of 4080 a.u.
For `CTAACGGAAGTACATCTGCTGATACATTTGAAATTCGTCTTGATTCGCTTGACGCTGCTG`, the fluorescence intensity was 578 a.u.
The fluorescence intensity of `GAATAGGCGATTGATCACGGACATAGCCATATTTAGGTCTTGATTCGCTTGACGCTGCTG` is reported as 611 a.u.
For `CTAGAAAACGTTTCTCAGGAGACTCTTTTAAGCTTCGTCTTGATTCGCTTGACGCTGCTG`, the fluorescence intensity was 492 a.u.
`CCTAACTACTATAAACTGATGTTATAGCTTCGTACAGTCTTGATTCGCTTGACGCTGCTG` has a fluorescence intensity of 527 a.u.
`CTATTTGTAAAAAGTGGCATCATGACCAATAATTTCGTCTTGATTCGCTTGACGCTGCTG` has a fluorescence intensity of 923 a.u.
The fluorescence intensity of `CTAATGACTCCACGTCACATGAAACCACACCGTTTCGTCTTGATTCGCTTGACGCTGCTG` is reported as 1160 a.u.
With `GAACTATTTTCGTTAAAGGTGATTACAGGCGGTTAGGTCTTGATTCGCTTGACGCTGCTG` the fluorescence intensity was 580 a.u.
`GAACAACTGGCTGAACACGTGCCCCTCTATCTGTAGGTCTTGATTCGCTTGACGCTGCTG` has a fluorescence intensity of 13300 a.u.

Study 2 — technique: protein-binding microarray; form: double-stranded DNA, one strand shown; sample: in vitro; tested at: 250 nM; notes: 60-bp whole probe; with: salmon DNA 0.4 mg/ml; reference: random background probes; direction: higher = stronger binding; shared flanks, not repeated: GCCTAGCAC … GTCTTGATTCGCTTGACGCTGCTG
Target: Interferon regulatory factor 7, full length, phosphomimetic (IRF7, Homo sapiens, UniProt Q92985, residues 1-503, S101K/S471D/S472D/S475D/S476D/S477D/S483D/S484D/S487D)
Residues (chain): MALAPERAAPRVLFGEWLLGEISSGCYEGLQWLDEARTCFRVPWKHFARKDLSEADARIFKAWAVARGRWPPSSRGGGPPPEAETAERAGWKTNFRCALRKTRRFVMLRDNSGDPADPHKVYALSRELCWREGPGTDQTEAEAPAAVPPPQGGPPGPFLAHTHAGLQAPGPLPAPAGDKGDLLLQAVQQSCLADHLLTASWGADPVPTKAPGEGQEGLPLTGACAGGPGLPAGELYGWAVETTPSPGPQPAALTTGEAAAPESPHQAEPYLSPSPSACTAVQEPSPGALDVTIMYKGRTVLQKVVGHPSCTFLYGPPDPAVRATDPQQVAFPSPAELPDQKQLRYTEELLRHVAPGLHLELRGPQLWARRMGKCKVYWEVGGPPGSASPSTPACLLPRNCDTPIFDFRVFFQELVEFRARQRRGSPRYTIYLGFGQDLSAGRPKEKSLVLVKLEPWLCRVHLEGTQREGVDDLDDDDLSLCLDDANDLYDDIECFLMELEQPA
`GACGGTTTCGACTTTCGGTACGTGCTA` has a log fluorescence of 11.4 z-score.
With `GACGGTCTCGGTTTCGGCACGTGCTAG` the log fluorescence was 7.1 z-score.
With `TTAGGTATCGGACTGGGATAGTGCTAG` the log fluorescence was 0.258 z-score.
For `TTAGGTCGCGGACTGGGTTAGTGCTAG`, the log fluorescence was -0.0182 z-score.
With `TCAATTCCCTTTCTCAAACTGTGCTAG` the log fluorescence was 2.72 z-score.
With `GGCTGTTTGATCTTGATCCTGTGCTAG` the log fluorescence was -0.805 z-score.
With `TTAGATATCGGGTATCGATAAGTGCTA` the log fluorescence was 0.328 z-score.
`ATCACTTTCCACTTGTCTTTGTGCTAG` gave a log fluorescence of 2.61 z-score.
`GACGGTGTCCTTCTCCTGACGTGCTAG` gave a log fluorescence of -0.317 z-score.
For `TATAGTTATTTTTATTAAAAGTGCTAG`, the log fluorescence was 0.45 z-score.
`CCCGATATGCGGTAAGGGCGCGTGCTA` gave a log fluorescence of -0.41 z-score.
For `TCAAGCTTCCATTTTCTACTGTGCTAG`, the log fluorescence was 0.527 z-score.
For `CCACTTTCACTTCTCCCTTTGTGCTAG`, the log fluorescence was 5.07 z-score.
With `TTAGCACTGCTTCTCCTTTAGTGCTAG` the log fluorescence was -0.0795 z-score.
The log fluorescence of `ACTCTTCTTTTTTTTCTTTAGTGCTAG` is reported as 1.38 z-score.
`GACGGACTGCTTTTCTTGACGTGCTAG` has a log fluorescence of 0.0693 z-score.
The log fluorescence of `GACGCTATCGGTCTCGGGACGTGCTAG` is reported as 0.261 z-score.
`GACGGTTTCGGGTTTCTGGACGTGCTA` has a log fluorescence of 11.1 z-score.
With `GACGATATCAGTCTCGGGACGTGCTAG` the log fluorescence was 0.157 z-score.
With `GACGGACTGCTTATCCAGACGTGCTAG` the log fluorescence was -0.54 z-score.
`TCAAAGCAAAAATGATTACTGTGCTAG` has a log fluorescence of -0.0392 z-score.
With `GACGGTTTGGGACTGGGGACGTGCTAG` the log fluorescence was 0.0171 z-score.
The log fluorescence of `TTAGATTTCGGTATCGGTTAGTGCTAG` is reported as 3.01 z-score.

Study 3 — technique: RNA Bind-n-Seq; form: RNA; sample: in vitro; tested at: not given; reference: input RNA pool; direction: higher = stronger binding
Target: RING finger protein unkempt homolog, zinc fingers 1-6, GST-SBP tag (UNK, Homo sapiens, UniProt Q9C0B0, residues 30-357)
Chain of UniProt Q9C0B0 (30-357, looked up): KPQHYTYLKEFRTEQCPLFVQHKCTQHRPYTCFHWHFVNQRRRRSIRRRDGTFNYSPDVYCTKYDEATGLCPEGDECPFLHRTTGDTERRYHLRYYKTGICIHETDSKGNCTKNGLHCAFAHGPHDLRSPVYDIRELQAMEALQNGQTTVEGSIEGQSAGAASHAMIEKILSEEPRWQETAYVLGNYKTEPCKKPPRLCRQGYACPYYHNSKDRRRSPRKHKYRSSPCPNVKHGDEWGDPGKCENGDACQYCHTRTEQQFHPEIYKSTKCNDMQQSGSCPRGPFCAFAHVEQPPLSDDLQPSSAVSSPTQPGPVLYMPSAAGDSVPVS
Notes: RNA with constant flanks, human-mouse chimeric sites, ends assumed
With `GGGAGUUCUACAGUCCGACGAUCCAGGGCAUCAUCUCUCGUGCUGUUAGACACCUGUUCAAGAGUAUUGAUGAGAAAAAGACCUCAGCGAUUAAAAAUGGGCUGCCCCCUCCUGAAUUCAAAGUGAAUGCCCAAUUCUUAGAGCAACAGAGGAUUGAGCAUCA` the bound/input enrichment was 0.486 ratio.
For `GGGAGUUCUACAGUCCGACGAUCGGCUGCUGGUGACUGUCCUGGAGUGGCUGGAGUUCCCGCCGGAGCGCGCGCAGGUUAAUUAUAGAAAAUGCCAAGUAGGAAGUUUGUUGAGGGUGAAGUGGUCAGAGGCCGAUGGCCUGGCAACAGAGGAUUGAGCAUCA`, the bound/input enrichment was 3.62 ratio.
`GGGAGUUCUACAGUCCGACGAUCGGAAUUGCUGAUUCAAGUAAGUUUGAGUAUCACAAUGUUAGCUUUCUAAUUCCAUAAAAGUACUUGGUUUUUACAGUUUAUAAUCUGACAUCACCCCAGCGCCAUUUGUAAAGAGCAACUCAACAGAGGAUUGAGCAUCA` gave a bound/input enrichment of 0.39 ratio.
For `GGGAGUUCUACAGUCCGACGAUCCUGUGACCACAAGAUCCUACCUGAGUGGCAGCUGAAGUUGACUCCCUCCCCUUCCCUGAACCCCCCCCCACUGCCCCCCCAUCCCCCAGUGUCGGCUGAGAUGUUGCCAGCAGACAGUUCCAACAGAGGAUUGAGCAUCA`, the bound/input enrichment was 0.661 ratio.
`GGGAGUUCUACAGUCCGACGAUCUAUAAUAAUCAUGAAAUUCGUUCCGGGAAGCACAUUGGUGUCUGCAUCUCAGUUGCCAACAAUAGGCUUUUUGUGGGCUCUAUUCCUAAGAGUAAAACCAAGGAACAGAUUCUUGAGGAACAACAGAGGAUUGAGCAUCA` has a bound/input enrichment of 0.437 ratio.
`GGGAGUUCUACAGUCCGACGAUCUCUUUAAAAAAAAAAUUACAGGAAAAUACAGUGCUUUAUGGAGUAAAGAUCCACGUUCAAGCUCAAAGAGCAAAGGCUUUGCACGGAGCUCAAACAUCUGAUGAAGAAAGAUUUCUGAGACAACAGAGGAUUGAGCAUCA` has a bound/input enrichment of 0.158 ratio.
For `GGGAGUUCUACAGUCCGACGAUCACCUCCCCCUCCCGCCUCACCCCACCCCCGCUUUUUGGAAAGUUUUUGGCUUUUUUUUUCCUUCCCCAUACAAAGUGAUUACAGUUUAGAGUCUAUGGGUCUAUCGAAGGGCUUGACGGACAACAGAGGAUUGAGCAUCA`, the bound/input enrichment was 1.17 ratio.
`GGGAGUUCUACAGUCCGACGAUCCAGGGCAUUAUUUCUCGUGCUGUUAGACACCUGUUCAAGAGUAUUGAUGAGAAAAAGACCUCAGCGAUUAAAAACGGGCUGCCCCCUCCUGAAUUCAAAGUGAAUGCCCAGUUCCUAGAGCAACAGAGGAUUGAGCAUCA` gave a bound/input enrichment of 0.113 ratio.
For `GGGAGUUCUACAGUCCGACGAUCCAGUCCCCGUGUCCCAGUGCAGGACGAUGUGAACAAAAACUCAAAGCGGACCCUCUAUUGUAGUUCUUGAUUCUCGAGUGCCAUUAUUAUUGUUUGUCUUUUUUUUUAAAAGAAAAGAGACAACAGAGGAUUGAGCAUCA`, the bound/input enrichment was 0.21 ratio.
`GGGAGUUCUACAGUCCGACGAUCCUCAGAGAUGUGGCAUAUCAGUAUGUGAAAAAGGGGUCUCGUAUAUUUGUGGAAGGGAAAGUGGACUAUGGUGAAUACAUGGAUAAAAACAAUGUGAGGCGGCAAGCAACAACAAUCAUACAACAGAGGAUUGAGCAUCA` has a bound/input enrichment of 0.394 ratio.
`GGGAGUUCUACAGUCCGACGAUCAUCAAAUAUUUUGGGGAUAUUAUUAGCGUGGGACAGAGACUGUUGCAAGGAGCUCGGAUCUUAGGGAUUCCAGUUAUCAUAACGGAACAAUACCCCAAAGGACUUGGCAGCACCGUUCAACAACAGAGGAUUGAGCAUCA` has a bound/input enrichment of 0.302 ratio.

Study 4 — target: CCND3, cyclin fold, Cln2 fusion (human); technique: yeast growth competition, sequencing; sample: yeast; notes: weak parent motif; reference: not given; direction: higher = stronger binding
Parent: PKMYT1 docking peptide (human); SFEPRNLLSLFED
`N6H`: “normalised enrichment score” 0.087.
Under “normalised enrichment score”, `P4F` is recorded as 0.118.
`D13L`: “normalised enrichment score” 0.102.
`E3L`: “normalised enrichment score” 0.0733.
Under “normalised enrichment score”, `L7E` is recorded as 0.00756.
For `L8F`, “normalised enrichment score” read 0.0697.
`E3A` — result for “normalised enrichment score”: 0.0295.
`R5S` — result for “normalised enrichment score”: 0.0745.
`N6D`: “normalised enrichment score” 0.0851.
For `E3Y`, “normalised enrichment score” read 0.17.
Under “normalised enrichment score”, `L10C` is recorded as 0.0384.
For `L8N`, “normalised enrichment score” read 0.136.
Under “normalised enrichment score”, `L8H` is recorded as 0.13.
Under “normalised enrichment score”, `L7R` is recorded as 0.127.
`N6G`: “normalised enrichment score” 0.173.
`L7I` — result for “normalised enrichment score”: 0.11.
`N6T`: “normalised enrichment score” 0.12.
For `P4I`, “normalised enrichment score” read -0.0308.
`L8C` — result for “normalised enrichment score”: 0.124.
`P4C`: “normalised enrichment score” 0.11.
`R5A`: “normalised enrichment score” 0.105.
For `E3P`, “normalised enrichment score” read 0.113.
`F2P`: “normalised enrichment score” 0.0859.
`L10N`: “normalised enrichment score” 0.184.
`S1H`: “normalised enrichment score” -0.0318.

Repeated from above (study 1):
For `CTAGAAAACGTTTCTCAGGAGACTCTTTTAAGCTTCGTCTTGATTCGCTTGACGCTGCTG`, the fluorescence intensity was 492 a.u.
`GAACATAGAAAAAAGCATGTGATCAAGGCAGAGTAGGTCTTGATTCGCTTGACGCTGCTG` has a fluorescence intensity of 4080 a.u.
With `CCTAACTACTATAACGTGCGTACATAGCTTCGTACAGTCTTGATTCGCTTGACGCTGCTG` the fluorescence intensity was 617 a.u.
The fluorescence intensity of `CCTAACTACTATAGTGATATTGCATAGCTTCGTACAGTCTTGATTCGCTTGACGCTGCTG` is reported as 504 a.u.
